Experimental data pooled from the literature.
Lines come from different studies, so protocols differ. Values joined by “and” are separate records of one study, mostly repeats; a detail may differ. Numbers after ± are the reported error.

| Structure (SMILES) | assay | system | setting | scale | measurement | result |
| --- | --- | --- | --- | --- | --- | --- |
| CCN1[C@@H](C(=O)NC23CCC(C(=O)O)(CC2)CC3)[C@H](c2cccc(Cl)c2F)[C@]2(C(=O)Nc3cc(Cl)ccc32)C12CCCCC2 | – | patients with advanced solid tumours | oral, 150 mg | – | Leukopenia incidence | 75% |
| CC(=O)c1c(C)c2cnc(Nc3ccc(C4CCN(CCS(C)(=O)=O)CC4)cn3)nc2n(C2CCCC2)c1=O | – | human patients, plasma | oral, 75 mg twice daily, day 1 single dose, together with: fulvestrant | – | clearance | 2050 mL/min |
| O=Cc1cn(Cc2cccc(Cl)c2)c2ccccc12 | – | F344 rat, male, liver | oral, 150 mg/kg/day, 2 days | – | bile ducts per triad | 1 and 2 and 1.8 |
| COc1ccc(-c2c(-c3ccc(C#N)c(F)c3)nc(N3CCC(N)CC3)n(C)c2=O)cc1F | refers to: esophageal ulcer | human patients | oral, dose not given, dose escalation | – | serious TEAE incidence | 2% |
| CN1CC[C@@H](c2c(O)cc(O)c3c(=O)cc(-c4ccc(C(F)(F)F)cc4Cl)oc23)[C@@H]1CO | refers to: Pneumonia | relapsed AML | oral, 150 mg, grade 3-4, intermittent dosing | – | patients with adverse event | 0% |
| O=C(O)C(O)(c1cccs1)c1cccs1 | refers to: metabolite | human, plasma | oral, 10 mg once daily, 5 days, median | – | dose-normalised free Cmax | 0.0144 (ng/mL)/mg |
| Cc1nc(Nc2ccc(CC(=O)O)cc2)nc(Nc2ccc(F)c(C(F)(F)F)c2)c1C | – | mice, chronic ethanol plus binge | intraperitoneal, 0.3 mg/kg daily, ethanol diet 4 weeks, dosed last two | relative to: vehicle | serum urea nitrogen | no effect |
| Cn1c(=O)c2c(ncn2C)n(C)c1=O | PAMPA | – | 200 µM, 5 h, pH 7.4 | – | membrane retention | 11.4% |
| CC(C)CC(=O)OC[C@H]1O[C@@](C#N)(c2ccc3c(N)ncnn23)[C@H](O)[C@@H]1O | plasma protein binding | mouse plasma | 9 µM, time not given | – | recovery | 94.1% |
| COc1ccc2nc3cc(Cl)ccc3c(Nc3cc(CN4CCCC4)c(O)c(CN4CCCC4)c3)c2n1 | – | mouse, blood | intraperitoneal, 14 mg/kg | – | mean platelet volume | 6.2 fL |
| O=S(=O)(Nc1ccccc1)c1ccc(NC(=S)Nc2ccccc2)cc1 | refers to: BUN | female mouse, blood | oral, 5 mg/kg daily, 14 days | – | blood chemistry level | 15.2 mg/dL |
| C[C@H]1CN(C(=O)CC#N)[C@]12CCN(c1ncnc3[nH]ccc13)C2 | – | rat male | oral, 30 mg/kg repeated daily, 3 months, repeated-dose toxicity study | – | Cmax at NOAEL | 3.03 µg/mL |
| CC(C)(c1ccccc1)c1cc(-n2nc3ccccc3n2)c(O)c(C(C)(C)c2ccccc2)c1 | – | human aged 11-16 years | concentration not given, spray sunscreen, mean | – | daily dermal exposure dose | 8.26 ng/kg/day |
| Cc1cc(C)c(CNC(=O)c2cc(Cl)c3c(c2C)O[C@@](C)([C@H]2CC[C@H](N(C)C)CC2)O3)c(=O)[nH]1 | – | relapsed/refractory NHL patients | dose not given, trial, safety set, treatment-related TEAE grade 5 | – | incidence of dry skin | 0% |
| CN(C)c1cccc2c(S(=O)(=O)N3CCN(c4ccccc4)CC3)cccc12 | – | toluene | 20 °C | – | emission maximum | 483 nm |
| CCN(CC)CCCC(C)Nc1c2ccc(Cl)cc2nc2ccc(OC)cc12 (centres unmarked) | – | African green monkey cells | 3 (unit not given) | – | CC50 | 2110 nM |
| COc1cccc(Oc2ccccc2NC(=O)CNC(=O)c2cccc3ccccc23)c1 | – | esterase-deficient SCID mice, male | oral, 40 mg/kg/day, 14 days, toxicity study | – | unconjugated bilirubin | 0.1 mg/dL |
| C[C@@H](NC(=O)N1C(=O)[C@H](Cc2ccnc(N)c2)[C@H]1C(=O)O)C1CCCCC1 | – | healthy Chinese adult volunteers | continuous intravenous infusion, dose not given, 5.0 days, all doses pooled | – | subjects with mild AEs | 50% |

| Structure (SMILES) | assay | system | setting | scale | measurement | result |
| --- | --- | --- | --- | --- | --- | --- |
| O=C(O)CNCP(=O)(O)O | ultrafiltration | cow milk whey | 2000 nM nominal in whole milk | – | dose fraction in permeate | 58.1% |
| CCc1ccc(CC/C=C/c2ccc3c(c2)C(=O)CC3)cc1 | – | Sprague-Dawley rat, male, blood | oral, 450 mg/kg/day, 14 days | – | MCV | 60.8 fL |
| C[C@]1(CO)Cc2ncn(-c3ccc(C#N)c(Cl)c3)c2C(=O)O1 | – | human | 3 mg multiple doses, fasted | – | subjects with drug-related headache | 0% |
| Cc1cccc(Cn2nc(C3CC3)c3c(NC(=O)c4cnc5cc(OCCN6CCN(C)CC6)ccn45)cccc32)n1 | refers to: Amylase increased | human advanced solid tumours | oral, dose not given, all-causality,, all doses | – | adverse events incidence | 26.3% |
| COc1ccnc(C(=O)N[C@H]2COC(=O)[C@H](Cc3ccccc3)[C@@H](OC(=O)C(C)C)[C@H](C)OC2=O)c1OCOC(=O)C(C)C | soil adsorption | clay soil | pH 7.6, organic carbon 1.7 % | – | Freundlich coefficient KF | 148 mL/g |
| O=C(Nc1ccccc1)C1CCN(C(=O)Oc2cccnc2)CC1 | Bond-Lader VAS | healthy women | 60 mg | relative to: pre-dose baseline, direction not given | change in Alert-Drowsy score | 2.2 |
| O=c1ccc2ncc(=O)n3c2n1C[C@H]3CN1CCC(NCc2cc3c(cn2)OCCC3)CC1 | – | healthy human volunteers, urine | oral, 1500 mg, arithmetic mean, alone | – | AUC(0-24) | 3870 µg·h/mL |
| CO[C@H]1C[C@@H]2CC[C@@H](C)[C@@](O)(O2)C(=O)C(=O)N2CCCC[C@H]2C(=O)O[C@H]([C@H](C)C[C@@H]2CC[C@@H](OC(=O)NCCOCCOCCOCCOCCOCCOCCOCCOCCC(=O)N3CCc4cc(Cn5nc(-c6ccc7oc(N)nc7c6)c6c(N)ncnc65)ccc4C3)[C@H](OC)C2)C[C@@H](O)[C@H](C)/C=C(\C)[C@@H](O)[C@@H](OC)C(=O)[C@H](C)C[C@H](C)/C=C/C=C/C=C/1C | – | patients with advanced solid tumours | intravenous, 6 mg weekly, any grade | – | dysgeusia incidence | 8.3% |
| Clc1cc2c(cc1Cl)Oc1cc(Cl)c(Cl)cc1O2 | RNA-Seq, refers to: Cyp1b1 | Sprague-Dawley rat, female, liver | 10 µg/kg | relative to: vehicle | mRNA fold change | 335 fold |
| CC[C@H](C)[C@H](NC(=O)[C@H](Cc1ccccc1)NC(=O)[C@H](CCC(=O)O)NC(=O)[C@H](CCCNC(=N)N)NC(=O)[C@H](C)NC(=O)[C@H](C)NC(=O)[C@H](CCC(N)=O)NC(=O)[C@H](CCC(=O)O)NC(=O)[C@H](CCC(=O)O)NC(=O)[C@H](CC(C)C)NC(=O)[C@H](Cc1ccc(O)cc1)NC(=O)[C@H](CO)NC(=O)[C@H](CO)NC(=O)[C@@H](NC(=O)[C@H](CC(=O)O)NC(=O)[C@H](CO)NC(=O)[C@@H](NC(=O)[C@H](Cc1ccccc1)NC(=O)[C@@H](NC(=O)CNC(=O)[C@H](CCC(=O)O)NC(=O)[C@H](C)NC(=O)CCc1cnc[nH]1)[C@@H](C)O)[C@@H](C)O)C(C)C)C(=O)N[C@@H](C)C(=O)N[C@@H](Cc1c[nH]c2ccccc12)C(=O)N[C@@H](CC(C)C)C(=O)N[C@H](C(=O)N[C@@H](CCCNC(=N)N)C(=O)NCC(=O)N[C@@H](CCCNC(=N)N)C(=O)N[C@@H](CCCCNC(=O)COCCOCCNC(=O)COCCOCCNC(=O)CC[C@H](NC(=O)CCCCCCCCCCCCCCCCC(=O)O)C(=O)O)C(=O)NCC(=O)NCC(=O)N[C@@H](CO)C(=O)N[C@@H](CCSC)C(=O)N[C@H](C(=O)N[C@@H](CCCCNc1c(NCCCCCN(O)C(=O)CCC(=O)NCCCCCN(O)C(=O)CCC(=O)NCCCCCN(O)C(C)=O)c(=O)c1=O)C(=O)O)C(C)C)C(C)C [zirconium-89 labelled] | ex vivo gamma counting | Sprague-Dawley rat, brain | intravenous, dose not given, 24 h | – | tissue uptake | 0.009 %ID/g |
| N[C@@H]1c2ccccc2OC12CCN(c1cnc3c(N4CCCc5ncccc54)n[nH]c3n1)CC2 | – | patients advanced metastatic solid tumours | oral, dose not given, all patients | – | incidence grade ≥3 serious TEAE | 28.6% |
| CC(C)C[C@H](NC(=O)[C@H](CCCCN)NC(=O)OCC1c2ccccc2-c2ccccc21)C(=O)N[C@H](C(=O)N[C@@H](Cc1ccccc1)C(=O)N[C@@H](Cc1ccccc1)C(=O)N[C@@H](CCCCN)C(=O)NCC(=O)N[C@@H](Cc1ccccc1)C(=O)N[C@@H](C)C(=O)N[C@@H](Cc1c[nH]c2ccccc12)C(=O)N[C@@H](CC(N)=O)C(=O)N[C@H](C(=O)N[C@H]1CSSC[C@@H](C(=O)N[C@@H](Cc2c[nH]cn2)C(=O)N[C@@H](CCCNC(=N)N)C(=O)N[C@@H](CCCNC(=N)N)C(=O)N[C@@H](C)C(=O)N[C@@H](CC(N)=O)C(N)=O)NC(=O)[C@H](C(C)C)NC(=O)[C@H](CCCNC(=N)N)NC(=O)[C@H](C(C)C)NC(=O)CNC(=O)[C@H](CC(N)=O)NC(=O)[C@H](CCCNC(=N)N)NC(=O)[C@H](Cc2ccc(O)cc2)NC(=O)[C@H](C(C)C)NC1=O)C(C)C)C(C)C | – | ICR mice, serum | intraductal mammary, 10 mg/kg, day 5 | – | phosphorus | 3.21 ± 0.07 mmol/L |
| CCC[C@@](N)(CO)CCc1ccc(OCCCCCC(C)C)cc1 | – | dog, male hounds, plasma | oral capsule, 2.5 mg/kg, geometric mean | – | AUC(0-72 h) | 3.14 µM·h |
| CCCc1cc(O)c(C/C=C(\C)CCC=C(C)C)c(O)c1C(=O)O | LC-MS/MS | Scn1a+/− mice, plasma | intraperitoneal, 10 mg/kg, after hyperthermia protocol | – | plasma concentration | 106 ± 16 µg/mL |
| N=C(N)NCCC[C@@H](NC(=O)[C@@H](N)Cc1ccccc1)C(=O)N[C@@H](Cc1ccccc1)C(=O)N[C@@H](CCCCN)C(N)=O | – | early Huntington's disease patients, plasma | subcutaneous, 5 mg, day 1, median | – | lag time | 0 h |
| COc1cc2c(Oc3ccc4[nH]c(C)cc4c3F)ccnc2cc1OCC1(N)CC1 | – | paediatric recurrent refractory sarcoma | 8 mg/kg | – | grade 1 or 2 AST elevation | 13.3% |
| Clc1ccc(-c2ccccc2)cc1 | – | female Sprague-Dawley rats, serum | inhalation, 23 µg/rat, 4 h after exposure | – | blood urea nitrogen | 18 ± 4 mg/dL |

Excerpt of the above:
| Structure (SMILES) | assay | system | setting | scale | measurement | result |
| --- | --- | --- | --- | --- | --- | --- |
| O=S(=O)(Nc1ccccc1)c1ccc(NC(=S)Nc2ccccc2)cc1 | refers to: BUN | female mouse, blood | oral, 5 mg/kg daily, 14 days | – | blood chemistry level | 15.2 mg/dL |
| C[C@H]1CN(C(=O)CC#N)[C@]12CCN(c1ncnc3[nH]ccc13)C2 | – | rat male | oral, 30 mg/kg repeated daily, 3 months, repeated-dose toxicity study | – | Cmax at NOAEL | 3.03 µg/mL |
| CC(C)(c1ccccc1)c1cc(-n2nc3ccccc3n2)c(O)c(C(C)(C)c2ccccc2)c1 | – | human aged 11-16 years | concentration not given, spray sunscreen, mean | – | daily dermal exposure dose | 8.26 ng/kg/day |
